Results gathered from unrelated publications.
A part holds a random share of what one study measured. Changes are numbered by the printed parent chain.
Sequence of UniProt Q7Z7E8 (whole entry, looked up): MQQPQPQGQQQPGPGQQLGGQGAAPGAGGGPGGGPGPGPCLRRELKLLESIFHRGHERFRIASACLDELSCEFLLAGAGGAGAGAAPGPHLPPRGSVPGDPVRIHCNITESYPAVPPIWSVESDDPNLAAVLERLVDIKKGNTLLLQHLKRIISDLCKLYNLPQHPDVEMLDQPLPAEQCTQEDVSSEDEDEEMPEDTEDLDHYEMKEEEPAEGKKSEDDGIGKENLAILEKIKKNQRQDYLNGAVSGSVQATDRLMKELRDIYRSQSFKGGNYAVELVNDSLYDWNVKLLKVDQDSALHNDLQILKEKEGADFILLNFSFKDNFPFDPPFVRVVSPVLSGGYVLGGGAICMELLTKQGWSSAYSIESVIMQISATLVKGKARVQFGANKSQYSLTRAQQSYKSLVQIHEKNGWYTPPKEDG
Sequence of UniProt P61081 (whole entry, looked up): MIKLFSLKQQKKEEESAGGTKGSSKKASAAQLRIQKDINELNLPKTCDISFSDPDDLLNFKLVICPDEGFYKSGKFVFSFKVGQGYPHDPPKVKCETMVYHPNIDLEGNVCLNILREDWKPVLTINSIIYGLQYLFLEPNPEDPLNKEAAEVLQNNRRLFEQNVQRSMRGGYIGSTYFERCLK
Sequence of UniProt Q9Y385 (whole entry, looked up): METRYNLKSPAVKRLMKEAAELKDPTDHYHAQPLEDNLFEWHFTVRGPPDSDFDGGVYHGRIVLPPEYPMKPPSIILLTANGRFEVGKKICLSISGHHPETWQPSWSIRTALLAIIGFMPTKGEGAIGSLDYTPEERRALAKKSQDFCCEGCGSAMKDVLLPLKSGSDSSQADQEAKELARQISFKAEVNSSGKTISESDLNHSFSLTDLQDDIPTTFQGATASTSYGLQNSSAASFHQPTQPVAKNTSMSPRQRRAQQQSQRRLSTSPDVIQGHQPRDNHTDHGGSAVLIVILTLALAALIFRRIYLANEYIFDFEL
Sequence of UniProt Q9C0C9 (whole entry, looked up): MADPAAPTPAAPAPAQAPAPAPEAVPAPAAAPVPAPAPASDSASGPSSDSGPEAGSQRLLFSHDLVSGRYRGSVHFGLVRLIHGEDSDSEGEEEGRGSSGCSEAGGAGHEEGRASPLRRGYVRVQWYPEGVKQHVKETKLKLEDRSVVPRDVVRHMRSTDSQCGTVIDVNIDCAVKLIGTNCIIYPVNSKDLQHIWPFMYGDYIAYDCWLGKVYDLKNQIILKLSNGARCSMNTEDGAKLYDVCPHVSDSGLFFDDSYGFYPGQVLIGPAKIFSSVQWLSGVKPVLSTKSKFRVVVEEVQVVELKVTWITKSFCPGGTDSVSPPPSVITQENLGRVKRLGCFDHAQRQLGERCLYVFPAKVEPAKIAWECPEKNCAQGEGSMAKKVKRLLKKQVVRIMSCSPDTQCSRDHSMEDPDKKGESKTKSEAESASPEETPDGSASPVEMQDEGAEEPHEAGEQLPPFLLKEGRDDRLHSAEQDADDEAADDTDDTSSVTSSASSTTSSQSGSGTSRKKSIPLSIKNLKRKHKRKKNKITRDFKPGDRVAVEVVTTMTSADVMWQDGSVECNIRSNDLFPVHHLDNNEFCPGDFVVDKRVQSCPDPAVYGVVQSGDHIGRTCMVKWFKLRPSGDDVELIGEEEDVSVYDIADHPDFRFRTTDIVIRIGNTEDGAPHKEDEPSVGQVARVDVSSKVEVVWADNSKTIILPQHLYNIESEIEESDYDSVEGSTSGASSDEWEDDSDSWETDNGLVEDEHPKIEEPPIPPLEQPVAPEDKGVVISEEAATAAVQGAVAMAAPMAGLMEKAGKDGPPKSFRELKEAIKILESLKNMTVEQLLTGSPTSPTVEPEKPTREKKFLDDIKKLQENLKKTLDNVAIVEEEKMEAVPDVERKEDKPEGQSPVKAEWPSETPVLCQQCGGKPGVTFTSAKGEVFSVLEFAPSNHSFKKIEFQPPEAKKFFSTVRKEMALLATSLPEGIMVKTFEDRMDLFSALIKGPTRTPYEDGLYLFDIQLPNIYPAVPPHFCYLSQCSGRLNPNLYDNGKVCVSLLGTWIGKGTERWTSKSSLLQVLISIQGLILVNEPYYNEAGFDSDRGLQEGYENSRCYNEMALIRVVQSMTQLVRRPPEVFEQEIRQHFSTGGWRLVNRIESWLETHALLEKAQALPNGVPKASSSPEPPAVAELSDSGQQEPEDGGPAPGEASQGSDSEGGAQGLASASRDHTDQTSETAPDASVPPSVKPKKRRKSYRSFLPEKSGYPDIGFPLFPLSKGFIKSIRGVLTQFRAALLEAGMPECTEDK
Sequence of UniProt Q712K3 (whole entry, looked up): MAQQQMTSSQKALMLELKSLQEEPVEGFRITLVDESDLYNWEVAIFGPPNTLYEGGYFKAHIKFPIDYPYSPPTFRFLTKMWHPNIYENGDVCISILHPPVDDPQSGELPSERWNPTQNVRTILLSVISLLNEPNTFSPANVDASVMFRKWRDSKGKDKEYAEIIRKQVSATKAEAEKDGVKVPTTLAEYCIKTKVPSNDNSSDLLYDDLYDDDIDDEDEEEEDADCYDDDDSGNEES
Sequence of UniProt P62253 (whole entry, looked up): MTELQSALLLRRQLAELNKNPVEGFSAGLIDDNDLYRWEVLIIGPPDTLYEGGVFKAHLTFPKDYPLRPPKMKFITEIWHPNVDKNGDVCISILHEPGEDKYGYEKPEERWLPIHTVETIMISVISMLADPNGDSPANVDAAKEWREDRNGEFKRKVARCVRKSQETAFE
Sequence of UniProt Q9Y2X8 (whole entry, looked up): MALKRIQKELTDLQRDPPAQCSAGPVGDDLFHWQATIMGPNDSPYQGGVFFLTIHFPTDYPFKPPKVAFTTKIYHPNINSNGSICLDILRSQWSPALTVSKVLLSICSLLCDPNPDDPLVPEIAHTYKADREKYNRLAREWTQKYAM
Sequence of UniProt Q8N2K1 (whole entry, looked up): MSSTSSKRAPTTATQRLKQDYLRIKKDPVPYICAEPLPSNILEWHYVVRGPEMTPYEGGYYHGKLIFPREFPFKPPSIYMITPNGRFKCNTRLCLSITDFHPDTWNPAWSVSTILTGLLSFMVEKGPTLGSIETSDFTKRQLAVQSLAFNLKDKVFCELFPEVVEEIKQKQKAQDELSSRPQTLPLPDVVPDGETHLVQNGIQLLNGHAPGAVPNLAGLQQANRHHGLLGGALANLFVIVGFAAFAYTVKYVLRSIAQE

Series 1
Sequence: B1 (RNF25 RING domain)
Technique: yeast two-hybrid
Sample: yeast
Notes: mostly zero background
Relative to: not given
Direction: higher = stronger interaction
Endpoint: lacZ reporter activity
B1: RNF25 RING domain (UniProt Q96BH1); chain LTDNNIPHGQCVICLYGFQEKEAFTKTPCYHYFHCHCLARYIQHMEQELKAQGQEQEQERQHATTKQKAVGVQCPVCREPLVYDLASL
UBE2J1 UBC core domain (UniProt Q9Y385): 0
UBE2D4 UBC core domain (UniProt Q9Y2X8): 8070
UBE2M UBC core domain (UniProt P61081): 0
UBE2G1 UBC core domain (UniProt P62253): 0
UBE2Q1 UBC core domain (UniProt Q7Z7E8): 0
UBE2O UBC core domain (UniProt Q9C0C9): 0
UBE2J2 UBC core domain (UniProt Q8N2K1): 0
UBE2R2 UBC core domain (UniProt Q712K3): 0

Series 2
Target: Max-binding protein MNT, bHLH-zipper, MAX partner unstated (MNT, Homo sapiens, UniProt Q99583, residues 220-300)
Technique: protein-binding microarray
Molecule type: double-stranded DNA, one strand shown
Sample: in vitro
Tested at: not given
Notes: k-mer, scored over probes, only values ≥0.25
Direction: higher = stronger binding
Endpoint: E-score
Target sequence (chain): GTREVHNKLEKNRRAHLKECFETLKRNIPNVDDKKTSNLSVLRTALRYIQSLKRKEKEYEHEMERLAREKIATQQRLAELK
CGTGTTTC: 0.302
CAAGCACG: 0.379
ATGTGTGA: 0.305
CGTGCTAA: 0.308
CGCATGCC: 0.397
CCACGTGA: 0.494
ACCACGCT: 0.404
ATGTGGCC: 0.354
GCGCACCC: 0.289
CAGCGCAG: 0.259
CACGTGCG: 0.495
AAACCATG: 0.323
CACGTGTA: 0.495
CGTGGCAC: 0.414
ATGTGTCA: 0.334
CGTGCATC: 0.337
CGCTCACG: 0.28
AGCGTGCG: 0.366
CGGGGAAC: 0.293
AAACACAT: 0.311

Series 3
Target: CCNE2, cyclin fold, Cln2 fusion (human)
Technique: yeast growth competition, sequencing
Sample: yeast
Notes: weak parent motif
Relative to: not given
Direction: higher = stronger binding
Endpoint: normalised enrichment score
Parent: PKMYT1 docking peptide (human); SFEPRNLLSLFED
F2K: -0.187
N6G: -0.636
S1I: -0.301
D13G: 0.235
P4A: 0.00675
F2V: -0.436
E3W: 0.24
S1K: -0.0342
L8Y: 0.35
L7I: 0.151
E12D: 0.0126
L10P: -0.182
D13P: 0.76
L10M: -0.249
P4F: -0.409
D13A: 1.21
R5E: 0.891
L7Y: -0.667
E12I: 0.48
D13Y: 0.49
E3H: 0.811
E3M: 0.758
L7W: -0.368
F11P: -0.183
F2P: -0.197

Series 4
Target: Sal-like protein 4, full length isoform A (SALL4, Homo sapiens, UniProt Q9UJQ4, residues 1-1053)
Sequence of UniProt Q9UJQ4 (whole entry, looked up): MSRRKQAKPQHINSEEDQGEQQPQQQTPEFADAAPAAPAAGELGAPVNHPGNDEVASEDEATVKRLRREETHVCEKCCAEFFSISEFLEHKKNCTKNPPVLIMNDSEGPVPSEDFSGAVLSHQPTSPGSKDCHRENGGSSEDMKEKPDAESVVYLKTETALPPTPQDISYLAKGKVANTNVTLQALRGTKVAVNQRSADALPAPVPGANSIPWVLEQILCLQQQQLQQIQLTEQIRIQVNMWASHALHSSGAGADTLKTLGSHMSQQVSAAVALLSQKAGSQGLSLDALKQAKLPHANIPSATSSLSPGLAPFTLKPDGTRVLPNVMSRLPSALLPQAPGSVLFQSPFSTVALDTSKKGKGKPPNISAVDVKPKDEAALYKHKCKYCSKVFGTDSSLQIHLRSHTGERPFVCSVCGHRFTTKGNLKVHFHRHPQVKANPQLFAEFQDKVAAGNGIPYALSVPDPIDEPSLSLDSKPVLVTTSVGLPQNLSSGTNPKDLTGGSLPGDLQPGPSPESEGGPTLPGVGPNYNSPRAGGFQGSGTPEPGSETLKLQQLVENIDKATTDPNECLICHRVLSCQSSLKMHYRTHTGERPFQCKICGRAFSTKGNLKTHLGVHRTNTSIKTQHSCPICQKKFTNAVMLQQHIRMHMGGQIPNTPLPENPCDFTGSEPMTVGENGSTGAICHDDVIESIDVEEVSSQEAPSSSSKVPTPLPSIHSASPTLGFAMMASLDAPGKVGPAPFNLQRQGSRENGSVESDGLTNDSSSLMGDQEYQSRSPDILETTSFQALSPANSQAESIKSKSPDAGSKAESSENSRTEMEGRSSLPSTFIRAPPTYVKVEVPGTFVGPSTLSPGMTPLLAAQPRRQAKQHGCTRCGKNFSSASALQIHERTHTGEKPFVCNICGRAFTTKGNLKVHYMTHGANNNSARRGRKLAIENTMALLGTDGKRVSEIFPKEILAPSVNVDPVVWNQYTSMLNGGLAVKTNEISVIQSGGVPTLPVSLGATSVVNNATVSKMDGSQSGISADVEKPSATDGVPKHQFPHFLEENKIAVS
Technique: universal PBM
Molecule type: double-stranded DNA, one strand shown
Sample: in vitro
Tested at: 600 nM
Notes: 8-mer, flanks averaged, mean of replicates
Direction: higher = stronger binding
Endpoint: E-score
TCTCTACA: 0.145
AGATCGCA: -0.0985
ATTTCTTG: 0.239
GCACTAAC: -0.0903
CCCGCGTA: -0.234
GTTGCCTA: -0.133
GCCAGGAC: -0.224
ATCTCTAG: 0.0677
GACCCTAC: -0.245
ATTCGTTG: 0.0128
GCTCCGAC: -0.22
AGCGTCGC: -0.243
ACGTGATG: -0.0205
CGAGTGTC: -0.275
TATCGTGA: 0.125
TGTGAACA: 0.00871
GTGAATTA: 0.312
CTCGCGGC: -0.348
GCAGCGCA: -0.268
AAAAGCAC: -0.0244
AACCTGAT: 0.131
CCTAGCGC: -0.259
AAGTTAGG: 0.0227
CTATCAAG: 0.0568
AGCGTTTG: -0.119

Series 5
Target: Ras GTPase-activating protein-binding protein 1, full length (G3BP1, Homo sapiens, UniProt Q13283)
Sequence of UniProt Q13283 (whole entry, looked up): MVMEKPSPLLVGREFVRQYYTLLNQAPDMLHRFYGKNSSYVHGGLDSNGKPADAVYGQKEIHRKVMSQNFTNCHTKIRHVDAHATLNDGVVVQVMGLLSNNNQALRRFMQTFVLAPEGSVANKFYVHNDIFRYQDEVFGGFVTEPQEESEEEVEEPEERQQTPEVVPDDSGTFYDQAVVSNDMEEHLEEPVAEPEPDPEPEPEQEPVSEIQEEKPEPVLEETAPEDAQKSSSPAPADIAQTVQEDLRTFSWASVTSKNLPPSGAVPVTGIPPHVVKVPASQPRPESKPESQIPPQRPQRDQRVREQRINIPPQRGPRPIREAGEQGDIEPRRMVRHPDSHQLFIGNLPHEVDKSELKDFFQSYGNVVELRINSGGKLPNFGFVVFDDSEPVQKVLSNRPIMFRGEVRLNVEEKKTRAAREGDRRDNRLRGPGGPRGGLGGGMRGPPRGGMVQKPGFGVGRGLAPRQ
Technique: RNA Bind-n-Seq
Molecule type: RNA
Sample: in vitro
Tested at: 200 nM
Notes: whole 134-nt RNA, ends assumed
Together with: 150 mM LiCl
Relative to: input library
Direction: higher = stronger binding
Endpoint: log2 enrichment
Library: 7-deaza-guanosine replaces G
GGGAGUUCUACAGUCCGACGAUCUCCUCAAGUCCUGUGCUACACAUCGUAUGUACCGAAUCGGGCGGGCGGCGGAAAGUAUUAUGUUACGCCGUUCGGAUCUGCACUUCCAGCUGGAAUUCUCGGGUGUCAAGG: 1.16
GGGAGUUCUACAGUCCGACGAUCCCUGUGCUACACAUCGUAUGUACCGAAUCGGGUUUUUGGGAAAAAAAGGGAAAAAAAGGGAAAGUAUUAUGUUACGCCGUUCGGAUCUGCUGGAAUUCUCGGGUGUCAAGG: -1.01
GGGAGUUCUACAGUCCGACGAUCUGGGAGGUGGAUUUUGUUUAUUUUUUUAGCUCAUUUCCAGAGGUGGGAAUUUUUUUUUAAUAUGUGUCAUGAAUAAAGUUGUUUUUGAAAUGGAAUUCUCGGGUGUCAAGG: -0.666
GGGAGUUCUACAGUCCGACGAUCACCAUGCAGGUGGGCAUCUUUGGGAAGUGGGGCAAGGGGGGGAUAGGGAGGGGGGUAACACUUUGGGAACAGGUGGUCCCAGGUCGUUGCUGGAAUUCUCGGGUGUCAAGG: 0.106
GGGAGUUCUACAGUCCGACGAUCUCAAGUCCUGUGCUACACAUCGUAUGUACCGAAUCGGUGGAAAGGAAAAAAAGGAAAGUAUUAUGUUACGCCGUUCGGAUCUGCACUUCCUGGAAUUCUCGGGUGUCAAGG: -0.862
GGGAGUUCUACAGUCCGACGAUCAAGUCCUGUGCUACACAUCGUAUGUACCGAAUCGGGGAGGGGAGGGGUUUUUGGGGAAAGUAUUAUGUUACGCCGUUCGGAUCUGCACUUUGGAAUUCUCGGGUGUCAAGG: 0.463
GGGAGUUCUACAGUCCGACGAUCAGUCCUGUGCUACACAUCGUAUGUACCGAAUCGGGGAAAGGGGUGGGGUUUUUGGGGAAAGUAUUAUGUUACGCCGUUCGGAUCUGCACUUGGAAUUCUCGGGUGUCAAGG: -0.229
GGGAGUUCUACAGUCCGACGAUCCCUGUGCUACACAUCGUAUGUACCGAAUCGGGGAAAAAAGGAAAAAAGGGGAAAAAAGGGAAAGUAUUAUGUUACGCCGUUCGGAUCUGCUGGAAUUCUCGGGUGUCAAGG: 0.425
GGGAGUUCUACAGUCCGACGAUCGUCCUGUGCUACACAUCGUAUGUACCGAAUCGGAAAAAGGGGAAAAAGGGGAAAAAGGGAAAGUAUUAUGUUACGCCGUUCGGAUCUGCAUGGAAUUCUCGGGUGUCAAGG: 0.0327
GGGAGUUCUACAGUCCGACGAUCUCAAGUCCUGUGCUACACAUCGUAUGUACCGAAUCGGGGUUGGGGUUGGGUUGGAAAGUAUUAUGUUACGCCGUUCGGAUCUGCACUUCCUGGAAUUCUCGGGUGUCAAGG: -0.206
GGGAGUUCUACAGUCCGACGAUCAAGUCCUGUGCUACACAUCGUAUGUACCGAAUCGGGGAAAAAGGGGAGGGGUGGGGAAAGUAUUAUGUUACGCCGUUCGGAUCUGCACUUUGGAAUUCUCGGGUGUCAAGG: 0.0347

Series 6
Target: ABI1, truncated, D143A, DHFR fusion (Arabidopsis thaliana)
Technique: DHFR PCA, deep sequencing
Sample: yeast
Notes: methotrexate growth selection, single substitutions
Together with: (+)-ABA 200 µM
Relative to: wild-type fitted maximum
Direction: higher = stronger binding
Endpoint: relative binding score
Parent: PYL1, truncated, DHFR fusion (Arabidopsis thaliana); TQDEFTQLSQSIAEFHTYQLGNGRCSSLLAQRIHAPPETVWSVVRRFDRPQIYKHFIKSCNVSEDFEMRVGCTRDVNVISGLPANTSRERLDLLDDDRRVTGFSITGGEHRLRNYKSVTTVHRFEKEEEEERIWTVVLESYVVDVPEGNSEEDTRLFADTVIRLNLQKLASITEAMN
V118M: 102%
L29I: 97.3%
Q31S: 55.9%
T73G: 82.4%
N177S: 96.4%
N77V: 106%
T135V: 61.6%
T106F: 106%
S104T: 104%
Y53H: 92.5%
V40W: -16.1%
D3N: 93%
S104N: 31%
Q51N: 94.7%
A158K: -8.56%
F124M: 110%
R155G: 49.4%
I79S: 98.8%
H55F: 90.2%

Some of these lines once more (series 5):
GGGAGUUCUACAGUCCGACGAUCUCCUCAAGUCCUGUGCUACACAUCGUAUGUACCGAAUCGGGCGGGCGGCGGAAAGUAUUAUGUUACGCCGUUCGGAUCUGCACUUCCAGCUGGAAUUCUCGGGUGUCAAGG: 1.16
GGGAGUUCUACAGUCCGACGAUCCCUGUGCUACACAUCGUAUGUACCGAAUCGGGUUUUUGGGAAAAAAAGGGAAAAAAAGGGAAAGUAUUAUGUUACGCCGUUCGGAUCUGCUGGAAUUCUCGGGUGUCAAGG: -1.01
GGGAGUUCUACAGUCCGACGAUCUGGGAGGUGGAUUUUGUUUAUUUUUUUAGCUCAUUUCCAGAGGUGGGAAUUUUUUUUUAAUAUGUGUCAUGAAUAAAGUUGUUUUUGAAAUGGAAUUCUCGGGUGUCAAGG: -0.666
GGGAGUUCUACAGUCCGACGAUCACCAUGCAGGUGGGCAUCUUUGGGAAGUGGGGCAAGGGGGGGAUAGGGAGGGGGGUAACACUUUGGGAACAGGUGGUCCCAGGUCGUUGCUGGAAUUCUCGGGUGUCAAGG: 0.106
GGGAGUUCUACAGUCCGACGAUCUCAAGUCCUGUGCUACACAUCGUAUGUACCGAAUCGGUGGAAAGGAAAAAAAGGAAAGUAUUAUGUUACGCCGUUCGGAUCUGCACUUCCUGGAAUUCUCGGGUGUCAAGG: -0.862
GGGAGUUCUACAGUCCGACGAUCAAGUCCUGUGCUACACAUCGUAUGUACCGAAUCGGGGAGGGGAGGGGUUUUUGGGGAAAGUAUUAUGUUACGCCGUUCGGAUCUGCACUUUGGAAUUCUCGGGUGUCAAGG: 0.463
